Assay results of several laboratories.
Protocols differ between the studies behind these lines. ± gives the spread as reported.
Sequence of UniProt P41143 (whole entry, looked up): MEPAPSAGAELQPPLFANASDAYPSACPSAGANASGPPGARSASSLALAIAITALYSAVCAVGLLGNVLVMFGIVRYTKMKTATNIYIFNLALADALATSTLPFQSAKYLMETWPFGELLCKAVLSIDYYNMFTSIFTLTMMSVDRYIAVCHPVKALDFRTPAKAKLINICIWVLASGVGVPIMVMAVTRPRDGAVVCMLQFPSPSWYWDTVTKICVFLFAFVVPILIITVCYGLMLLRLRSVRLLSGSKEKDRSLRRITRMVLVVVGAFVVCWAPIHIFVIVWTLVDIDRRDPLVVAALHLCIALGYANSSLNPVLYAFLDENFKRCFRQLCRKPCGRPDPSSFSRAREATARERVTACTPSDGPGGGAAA

For `CCCCCCCCCCCCCCCC(=O)N[C@@H](CCC(=O)NCCOCCOCCC(=O)NCCOCCOCCC(=O)NCCCC[C@H](NC(=O)[C@H](CC(=O)O)NC(=O)[C@H](CC(C)C)NC(=O)[C@H](Cc1ccc(O)cc1)NC(=O)[C@H](CCCCN)NC(=O)[C@H](CO)NC(=O)[C@H](Cc1ccc(O)cc1)NC(=O)[C@H](CC(=O)O)NC(=O)[C@H](CO)NC(=O)[C@@H](NC(=O)[C@H](Cc1ccccc1)NC(=O)[C@@H](NC(=O)CNC(=O)[C@H](CCC(N)=O)NC(=O)[C@@H](CO)NC(=O)[C@@H](N)Cc1c[nH]cn1)[C@@H](C)O)[C@@H](C)O)C(=O)N[C@@H](CCCNC(=N)N)C(=O)N[C@@H](CCCNC(=N)N)C(=O)N[C@@H](C)C(=O)N[C@@H](CCC(N)=O)C(=O)N[C@@H](CC(=O)O)C(=O)N[C@@H](Cc1ccccc1)C(=O)N[C@H](C(=O)N[C@@H](CCC(N)=O)C(=O)N[C@@H](Cc1c[nH]c2ccccc12)C(=O)N[C@@H](CC(C)C)C(=O)N[C@@H](CC(C)C)C(=O)N[C@@H](CC(N)=O)C(=O)N[C@H](C(=O)NCC(=O)NCC(=O)N1CCC[C@H]1C(=O)N[C@@H](CO)C(=O)N[C@@H](CO)C(=O)NCC(=O)N[C@@H](C)C(=O)N1CCC[C@H]1C(=O)N1CCC[C@H]1C(=O)N1CCC[C@H]1C(=O)N[C@@H](CO)C(N)=O)[C@@H](C)O)C(C)C)C(=O)O`, “serum enzyme activity” read 192 ± 37.4 U/L (refers to: ALP; rhesus monkey, female; subcutaneous, 300 µg/kg once daily, 28 days).
For `CC(C)C[C@H](NC(=O)[C@H](CO[C@@H]1O[C@H](CO)[C@@H](O[C@@H]2O[C@H](CO)[C@H](O)[C@H](O)[C@H]2O)[C@H](O)[C@H]1O)NC(=O)[C@H](CCCCN)NC(=O)[C@H](CC(C)C)NC(=O)[C@H](C)NC(=O)[C@H](CCCCN)NC(=O)[C@H](CCC(=O)O)NC(=O)CNC(=O)[C@H](CC(C)C)NC(=O)[C@H](CC(N)=O)NC(=O)[C@@H]1CCCN1C(=O)[C@H](CC(C)C)NC(=O)[C@H](Cc1ccccc1)NC(=O)CNC(=O)[C@H](NC(=O)[C@@H](N)Cc1ccc(O)cc1)[C@H](C)O)C(N)=O`, the Ki was 8.2 nM (OPRD1 (Homo sapiens, UniProt P41143); ligand displacement, radioligand; pH 7.5, cell membranes).
`Nc1ccn(C2CCC(OC(C(=O)O)P(=O)(O)O)C2)c(=O)n1` (racemic) gave a fold resistance of 1.1 fold (HIV-1 reverse transcriptase Y115F; enzyme activity, inhibitor; together with: poly(rI)·oligo(dC), [3H]dCTP; relative to: mutant over wild type).
The MIC of `CC[C@H](C)[C@H](NC(=O)[C@H](CCCCN)NC(=O)[C@H](CCCCN)NC(=O)[C@H](CC(C)C)NC(=O)[C@H](Cc1c[nH]c2ccccc12)NC(=O)CN)C(=O)NCC(=O)N[C@@H](CCCCN)C(=O)N[C@@H](CCCCN)C(=O)N[C@H](C(=O)N[C@@H](CCC(=O)O)C(=O)N[C@@H](CCCNC(=N)N)C(=O)N[C@H](C(=O)NCC(=O)N[C@@H](CCC(N)=O)C(=O)N[C@@H](Cc1c[nH]cn1)C(=O)N[C@H](C(=O)N[C@@H](CCCNC(=N)N)C(=O)N[C@@H](CC(=O)O)C(=O)N[C@@H](C)C(=O)N[C@H](C(=O)N[C@H](C(=O)N[C@@H](CCC(N)=O)C(=O)N[C@H](C(=O)N[C@H](C(=O)NCC(=O)N[C@H](C(=O)N[C@@H](C)C(=O)N[C@@H](CCC(N)=O)C(=O)N[C@@H](CCC(N)=O)C(=O)N[C@@H](C)C(=O)N[C@@H](C)C(=O)N[C@@H](CC(N)=O)C(=O)N[C@H](C(=O)N[C@@H](C)C(=O)N[C@@H](C)C(=O)N[C@H](C(=O)N[C@@H](CC(C)C)C(=O)N[C@@H](CCCCN)C(N)=O)[C@@H](C)O)C(C)C)C(C)C)[C@@H](C)CC)[C@@H](C)O)[C@@H](C)CC)[C@@H](C)O)[C@@H](C)O)C(C)C)[C@@H](C)CC` is reported as over 1020 mg/L (Enterococcus faecium; DSM 17050, CAMHB).
`Cc1cn(C2CCC(OC(C(=O)O)P(=O)(O)O)C2)c(=O)[nH]c1=O` (racemic) gave a fold resistance of 36 fold (HIV-1 reverse transcriptase M184I; enzyme activity, inhibitor; together with: poly(rA)·oligo(dT), [3H]dTTP; relative to: mutant over wild type).
`CC[C@H](C)[C@H](NC(=O)[C@H](Cc1ccccc1)NC(=O)[C@@H](NC(=O)[C@@H](NC(=O)[C@H](CC(C)C)NC(=O)[C@H](CCCCN)NC(=O)[C@@H](N)CCCCN)[C@@H](C)CC)[C@@H](C)O)C(=O)N[C@@H](CC(C)C)C(=O)N[C@@H](CCCNC(=N)N)C(=O)N[C@@H](CCCNC(=N)N)C(=O)N[C@H](C(=O)N[C@@H](CCCNC(=N)N)C(=O)N[C@@H](CCC(=O)O)C(=O)N[C@@H](CCCCN)C(=O)N[C@@H](CCCCN)C(=O)N[C@@H](CCCCN)C(=O)N[C@@H](CCC(=O)O)C(=O)N[C@@H](CS)C(=O)N[C@@H](CC(C)C)C(=O)N[C@H](C(=O)O)C(C)C)[C@@H](C)O`: “inactivation equilibrium constant” 0.044 (TTX-sensitive sodium channel (mouse); resurgent sodium current, open-channel blocker, kinetic model fit; mouse hippocampal CA3 neurons; 200 µM assumed intracellular, membrane potential -30 mV, unit not given; relative to: kIO over kOI).
`Nc1ncnc2c1ncn2C1CCC(OC(C(=O)O)P(=O)(O)O)C1` (racemic) has a fold resistance of 0.8 fold (HIV-1 reverse transcriptase Q151M; enzyme activity, inhibitor; together with: poly(rU)·oligo(dA), [3H]dATP; relative to: mutant over wild type).
For `CCCCCCCCCCCCCCCCCC(=O)N[C@@H](CCC(=O)NCCCC[C@H](NC(=O)[C@H](CCC(N)=O)NC(=O)[C@H](CCCCN)NC(=O)[C@H](CO)NC(=O)[C@H](CC(C)C)NC(=O)[C@H](CC(=O)O)NC(=O)[C@H](CO)NC(=O)[C@@H](NC(=O)[C@H](Cc1ccccc1)NC(=O)[C@@H](NC(=O)CNC(=O)[C@H](CCC(N)=O)NC(=O)[C@@H](CO)NC(=O)[C@@H](N)Cc1c[nH]cn1)[C@@H](C)O)[C@@H](C)O)C(=O)N[C@@H](CC(=O)O)C(=O)N[C@@H](CCC(=O)O)C(=O)N[C@@H](CCC(N)=O)C(=O)N[C@@H](CC(C)C)C(=O)N[C@@H](C)C(=O)N[C@@H](CCCCN)C(=O)N[C@@H](CC(=O)O)C(=O)N[C@@H](Cc1ccccc1)C(=O)N[C@H](C(=O)N[C@@H](CCC(=O)O)C(=O)N[C@@H](Cc1c[nH]c2ccccc12)C(=O)N[C@@H](CC(C)C)C(=O)N[C@@H](CCCCN)C(=O)N[C@@H](C)C(=O)NCC(=O)NCC(=O)N1CCC[C@H]1C(=O)N[C@@H](CO)C(=O)N[C@@H](CO)C(=O)NCC(=O)N[C@@H](C)C(=O)N1CCC[C@H]1C(=O)N1CCC[C@H]1C(=O)N1CCC[C@H]1C(=O)N[C@@H](CO)C(N)=O)[C@@H](C)CC)C(=O)O`, the EC50 was 6.3 pM (GLP-1 receptor (monkey); cAMP production, agonist, HTRF; HEK293 expressing monkey GLP-1R).
For `CC[C@H](C)[C@@H]1NC(=O)[C@H](CC(=O)O)NC(=O)[C@H]([C@@H](C)O)NC(=O)[C@@H]2CSSC[C@@H]3NC(=O)[C@H](CC(C)C)NC(=O)[C@H](CC(N)=O)NC(=O)[C@H](CC(C)C)NC(=O)[C@H](CCCNC(=N)N)NC(=O)[C@H](C)NC(=O)[C@H](CCCCN)NC(=O)[C@H](CCSC)NC(=O)[C@H](CO)NC(=O)[C@H]([C@@H](C)O)NC(=O)[C@H](CCCNC(=N)N)NC(=O)[C@H](CSSC[C@H](NC(=O)[C@H]([C@@H](C)O)NC(=O)[C@H](CCCCN)NC(=O)[C@H](CCCNC(=N)N)NC3=O)C(=O)NCC(=O)N[C@@H](CO)C(=O)N[C@H](C(=O)O)CSSC[C@H](NC(=O)[C@@H](NC(=O)[C@@H](N)CCCNC(=N)N)[C@@H](C)O)C(=O)N[C@@H](CCCCN)C(=O)N[C@@H](CC(=O)O)C(=O)N[C@@H](CC(C)C)C(=O)N[C@@H]([C@@H](C)CC)C(=O)N3CCC[C@H]3C(=O)N[C@@H](C(C)C)C(=O)N[C@@H](CO)C(=O)N[C@@H](CCC(=O)O)C(=O)N2)NC(=O)[C@H](CCCNC(=N)N)NC1=O`, the kon was 930000 ± 120000 M⁻¹ s⁻¹ (KcsA-Shaker channel; two-electrode voltage clamp; Xenopus oocytes; 0 mV).
With `CC[C@H](C)[C@H](NC(=O)[C@H](CCCCN)NC(=O)[C@H](Cc1c[nH]c2ccccc12)NC(=O)[C@H](CC(C)C)NC(=O)[C@H](CC(C)C)NC(=O)[C@H](CC(=O)O)NC(=O)[C@@H](NC(=O)[C@H](CCCNC(=N)N)NC(=O)[C@H](CCC(=O)O)NC(=O)[C@H](CCCNC(=N)N)NC(=O)[C@H](CC(=O)O)NC(=O)[C@H](CC(C)C)NC(C)=O)[C@@H](C)CC)C(=O)N[C@@H](C)C(=O)N[C@@H](CCCNC(=N)N)C(=O)N[C@@H](C)C(=O)NCC(=O)N[C@@H](C)C(=O)N[C@@H](CCCNC(=N)N)C(=O)N[C@@H](CO)C(=O)N[C@@H](C)C(=O)N[C@H](C(=O)NCC(N)=O)C(C)C` the Kd was 4.1 mM (membrane reorganisation, tryptophan fluorescence; POPC:POPG:cholesterol SUV; pH 7.5, 25 °C, second transition).
With `CC(=O)N[C@@H](CCCNC(=O)c1ccc(-c2cc(C(F)(F)F)ccn2)cc1)C(=O)N[C@@H](CCCNC(=O)c1ccc(-c2cc(C(F)(F)F)ccn2)cc1)C(N)=O` the IC50 was 38 µM (vaccinia virus VH1 phosphatase; enzyme activity, inhibitor).
The koff of `CC[C@H](C)[C@@H]1NC(=O)[C@H](CC(=O)O)NC(=O)[C@H]([C@@H](C)O)NC(=O)[C@@H]2CSSC[C@@H]3NC(=O)[C@H](CC(C)C)NC(=O)[C@H](CC(N)=O)NC(=O)[C@H](CC(C)C)NC(=O)[C@H](CCCNC(=N)N)NC(=O)[C@H](Cc4ccc(O)cc4)NC(=O)[C@H](CCCCN)NC(=O)[C@H](CCSC)NC(=O)[C@H](CO)NC(=O)[C@H]([C@@H](C)O)NC(=O)[C@H](CCCNC(=N)N)NC(=O)[C@H](CSSC[C@H](NC(=O)[C@H]([C@@H](C)O)NC(=O)[C@H](CCCCN)NC(=O)[C@H](CCCNC(=N)N)NC3=O)C(=O)NCC(=O)N[C@@H](CO)C(=O)N[C@H](C(=O)O)CSSC[C@H](NC(=O)[C@@H](NC(=O)[C@@H](N)CCCNC(=N)N)[C@@H](C)O)C(=O)N[C@@H](CCCCN)C(=O)N[C@@H](CC(=O)O)C(=O)N[C@@H](CC(C)C)C(=O)N[C@@H]([C@@H](C)CC)C(=O)N3CCC[C@H]3C(=O)N[C@@H](C(C)C)C(=O)N[C@@H](CO)C(=O)N[C@@H](CCC(=O)O)C(=O)N2)NC(=O)[C@H](CCCNC(=N)N)NC1=O` is reported as 0.0014 ± 0.0003 s⁻¹ (KcsA-Shaker channel; two-electrode voltage clamp; Xenopus oocytes; 0 mV).
Under “inactivation equilibrium constant”, `CC[C@H](C)[C@H](NC(=O)[C@H](C)NC(=O)[C@@H](NC(=O)[C@@H](NC(=O)[C@H](CC(C)C)NC(=O)[C@H](CCCCN)NC(=O)[C@@H](N)CCCCN)[C@@H](C)CC)[C@@H](C)O)C(=O)N[C@@H](CC(C)C)C(=O)N[C@@H](CCCCN)C(=O)N[C@@H](CCCCN)C(=O)N[C@H](C(=O)N[C@@H](CCCNC(=N)N)C(=O)N[C@@H](CCC(=O)O)C(=O)N[C@@H](CCCCN)C(=O)N[C@@H](CCCCN)C(=O)N[C@@H](CCCCN)C(=O)N[C@@H](CCC(=O)O)C(=O)N[C@@H](CS)C(=O)N[C@@H](CC(C)C)C(=O)N[C@H](C(=O)O)C(C)C)[C@@H](C)O` is recorded as 0.068 (TTX-sensitive sodium channel (mouse); resurgent sodium current, open-channel blocker, kinetic model fit; mouse hippocampal CA3 neurons; 200 µM assumed intracellular, membrane potential -30 mV, unit not given; relative to: kIO over kOI).

Repeated from above:
For `CCCCCCCCCCCCCCCCCC(=O)N[C@@H](CCC(=O)NCCCC[C@H](NC(=O)[C@H](CCC(N)=O)NC(=O)[C@H](CCCCN)NC(=O)[C@H](CO)NC(=O)[C@H](CC(C)C)NC(=O)[C@H](CC(=O)O)NC(=O)[C@H](CO)NC(=O)[C@@H](NC(=O)[C@H](Cc1ccccc1)NC(=O)[C@@H](NC(=O)CNC(=O)[C@H](CCC(N)=O)NC(=O)[C@@H](CO)NC(=O)[C@@H](N)Cc1c[nH]cn1)[C@@H](C)O)[C@@H](C)O)C(=O)N[C@@H](CC(=O)O)C(=O)N[C@@H](CCC(=O)O)C(=O)N[C@@H](CCC(N)=O)C(=O)N[C@@H](CC(C)C)C(=O)N[C@@H](C)C(=O)N[C@@H](CCCCN)C(=O)N[C@@H](CC(=O)O)C(=O)N[C@@H](Cc1ccccc1)C(=O)N[C@H](C(=O)N[C@@H](CCC(=O)O)C(=O)N[C@@H](Cc1c[nH]c2ccccc12)C(=O)N[C@@H](CC(C)C)C(=O)N[C@@H](CCCCN)C(=O)N[C@@H](C)C(=O)NCC(=O)NCC(=O)N1CCC[C@H]1C(=O)N[C@@H](CO)C(=O)N[C@@H](CO)C(=O)NCC(=O)N[C@@H](C)C(=O)N1CCC[C@H]1C(=O)N1CCC[C@H]1C(=O)N1CCC[C@H]1C(=O)N[C@@H](CO)C(N)=O)[C@@H](C)CC)C(=O)O`, the EC50 was 6.3 pM (GLP-1 receptor (monkey); cAMP production, agonist, HTRF; HEK293 expressing monkey GLP-1R).
